Assay results of several laboratories.
Compare with care: the assays were run in different laboratories.
B1: NTMT1 (Homo sapiens, UniProt Q9BV86); chain MTSEVIEDEKQFYSKAKTYWKQIPPTVDGMLGGYGHISSIDINSSRKFLQRFLREGPNKTGTSCALDCGAGIGRITKRLLLPLFREVDMVDITEDFLVQAKTYLGEEGKRVRNYFCCGLQDFTPEPDSYDVIWIQWVIGHLTDQHLAEFLRRCKGSLRPNGIIVIKDNMAQEGVILDDVDSSVCRDLDVVRRIICSAGLSLLAEERQENLPDEIYHVYSFAL
B2: TENT2 (Homo sapiens, UniProt Q6PIY7); chain MFPNSILGRPPFTPNHQQHNNFFTLSPTVYSHQQLIDAQFNFQNADLSRAVSLQQLTYGNVSPIQTSASPLFRGRKRLSDEKNLPLDGKRQRFHSPHQEPTVVNQIVPLSGERRYSMPPLFHTHYVPDIVRCVPPFREIAFLEPREITLPEAKDKLSQQILELFETCQQQISDLKKKELCRTQLQREIQLLFPQSRLFLVGSSLNGFGTRSSDGDLCLVVKEEPCFFQVNQKTEARHILTLVHKHFCTRLSGYIERPQLIRAKVPIVKFRDKVSCVEFDLNVNNIVGIRNTFLLRTYAYLENRVRPLVLVIKKWASHHQINDASRGTLSSYSLVLMVLHYLQTLPEPILPSLQKIYPESFSPAIQLHLVHQAPCNVPPYLSKNESNLGDLLLGFLKYYATEFDWNSQMISVREAKAIPRPDGIEWRNKYICVEEPFDGTNTARAVHEKQKFDMIKDQFLKSWHRLKNKRDLNSILPVRAAVLKR
B3: genB3 A452T/L401C/Q310N (Micromonospora echinospora, UniProt Q2MG50); chain MDSANLTNRGLVERARRVTAAENYDIGTRFSAMIQSGEGAWLTDVEGNRYVDLTASSGTIILGHRNQAVTEAITRQIRDFGTAFASTLSVPRVELAERLCERYECAEKVVFHKTGSEGTAMAARLARAATGRELILSCGYHGWHEWQLAGETFGYQQTTGVVGFGYNEKALAKMLEAFGNEVAGVLISPELLYFDVEFYQRMYALCARYDVPFMMDEVYTGFRAGPKGVHGLGVPADVVVVSKGLANGHSLAAVMGRRDIIDAYDVSGINGTYTREVPPMAAAMAVLDVLDTPGVYEHAEAMGRRLADGMREILTGEGIPNWVGGPALMFDTVLPNDDLGWEIYKTAHDFGVYFEDSGTQCVTTAFDEAAVDHALTAFRKATRQVIADRPDIAPTSGGELTEERKLDFAEETFGGLLRDDERTNALIDETIEKVVNRDRSIKPVLIPAQN
B4: protein (Thermotoga neapolitana, UniProt B9K712); chain MKMLYDLAKKRKTVRRFKKEKPPLEDLIYSLKVANEAPSGMNAQPWRFLIVEDEKLKGQIRRVCERSEKTFYENVRGRLKEWLDEKRFTWRKPFLKEAPYLLLVFSEKSAPYSRESVWLAVGYLLLALEEKGLGSVPYTPPDFREVEKLVNTPSELRLEVILPVGYPDDPKPKYPRNEVIVRYNTF
B5: PPIP5K2 (Homo sapiens, UniProt O43314); chain MSEAPRFFVGPEDTEINPGNYRHFFHHADEDDEEEDDSPPERQIVVGICSMAKKSKSKPMKEILERISLFKYITVVVFEEEVILNEPVENWPLCDCLISFHSKGFPLDKAVAYAKLRNPFVINDLNMQYLIQDRREVYSILQAEGILLPRYAILNRDPNNPKECNLIEGEDHVEVNGEVFQKPFVEKPVSAEDHNVYIYYPTSAGGGSQRLFRKIGSRSSVYSPESNVRKTGSYIYEEFMPTDGTDVKVYTVGPDYAHAEARKSPALDGKVERDSEGKEVRYPVILNAREKLIAWKVCLAFKQTVCGFDLLRANGQSYVCDVNGFSFVKNSMKYYDDCAKILGNIVMRELAPQFHIPWSIPLEAED
B6: DTYMK (Homo sapiens, UniProt P23919); chain MAARRGALIVLEGVDRAGKSTQSRKLVEALCAAGHRAELLRFPERSTEIGKLLSSYLQKKSDVEDHSVHLLFSANRWEQVPLIKEKLSQGVTLVVDRYAFSGVAFTGAKENFSLDWCKQPDVGLPKPDLVLFLQLQLADAAKRGAFGHERYENGAFQERALRCFHQLMKDTTLNWKMVDASKSIEAVHEDIRVLSEDAIRTATEKPLGELWK
B7: enzyme (Bacillus subtilis, UniProt P39639); chain MKTKEDMQELYFPTPKLIEWENGVRQYSTVRGDTEVLMSYVPPHTNVEPHQHKEVQIGMVVSGELMMTVGDVTRKMTALESAYIAPPHVPHGARNDTDQEVIAIDIKRLKADETYTSPEDYFLDIFKTRDLLPGMEVTFFVEDWVEIMLAKIPGNGGEMPFHKHRNEQIGICIGGGYDMTVEGCTVEMKFGTAYFCEPREDHGAINRSEKESKSINIFFPPRYNRAKAKKMKADE
UniProt P46059, sequence (whole entry, looked up): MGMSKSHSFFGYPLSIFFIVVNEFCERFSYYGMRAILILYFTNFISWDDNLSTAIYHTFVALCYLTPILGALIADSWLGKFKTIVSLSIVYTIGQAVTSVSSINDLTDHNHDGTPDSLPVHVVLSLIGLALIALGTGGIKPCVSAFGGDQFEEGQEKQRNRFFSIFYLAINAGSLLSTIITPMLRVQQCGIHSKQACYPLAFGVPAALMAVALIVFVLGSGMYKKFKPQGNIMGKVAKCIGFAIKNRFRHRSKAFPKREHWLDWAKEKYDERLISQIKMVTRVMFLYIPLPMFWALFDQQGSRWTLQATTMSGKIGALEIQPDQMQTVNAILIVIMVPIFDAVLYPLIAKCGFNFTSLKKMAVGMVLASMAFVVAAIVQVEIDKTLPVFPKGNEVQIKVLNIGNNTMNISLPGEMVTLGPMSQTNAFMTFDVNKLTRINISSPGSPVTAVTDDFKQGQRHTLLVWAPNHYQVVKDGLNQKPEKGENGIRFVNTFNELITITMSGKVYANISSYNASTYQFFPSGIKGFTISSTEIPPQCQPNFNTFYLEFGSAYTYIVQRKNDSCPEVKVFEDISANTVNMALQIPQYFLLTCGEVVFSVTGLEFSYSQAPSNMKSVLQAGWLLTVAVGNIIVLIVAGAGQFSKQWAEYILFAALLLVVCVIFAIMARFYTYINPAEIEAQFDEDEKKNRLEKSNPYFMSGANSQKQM
UniProt B2RXH2, sequence (whole entry, looked up): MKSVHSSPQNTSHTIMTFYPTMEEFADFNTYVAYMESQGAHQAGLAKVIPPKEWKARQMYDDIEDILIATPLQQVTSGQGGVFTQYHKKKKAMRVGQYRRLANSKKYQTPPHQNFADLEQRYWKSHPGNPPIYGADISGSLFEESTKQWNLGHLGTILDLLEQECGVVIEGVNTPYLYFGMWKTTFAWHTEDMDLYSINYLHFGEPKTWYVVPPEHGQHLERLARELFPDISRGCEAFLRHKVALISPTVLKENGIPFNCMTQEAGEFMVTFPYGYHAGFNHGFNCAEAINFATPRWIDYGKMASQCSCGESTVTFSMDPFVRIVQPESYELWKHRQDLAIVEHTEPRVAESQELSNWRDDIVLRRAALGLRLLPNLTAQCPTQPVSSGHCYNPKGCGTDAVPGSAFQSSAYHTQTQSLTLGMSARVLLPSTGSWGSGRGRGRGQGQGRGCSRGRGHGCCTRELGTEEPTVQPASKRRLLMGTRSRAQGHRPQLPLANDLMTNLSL
UniProt Q9ZGI2, sequence (whole entry, looked up): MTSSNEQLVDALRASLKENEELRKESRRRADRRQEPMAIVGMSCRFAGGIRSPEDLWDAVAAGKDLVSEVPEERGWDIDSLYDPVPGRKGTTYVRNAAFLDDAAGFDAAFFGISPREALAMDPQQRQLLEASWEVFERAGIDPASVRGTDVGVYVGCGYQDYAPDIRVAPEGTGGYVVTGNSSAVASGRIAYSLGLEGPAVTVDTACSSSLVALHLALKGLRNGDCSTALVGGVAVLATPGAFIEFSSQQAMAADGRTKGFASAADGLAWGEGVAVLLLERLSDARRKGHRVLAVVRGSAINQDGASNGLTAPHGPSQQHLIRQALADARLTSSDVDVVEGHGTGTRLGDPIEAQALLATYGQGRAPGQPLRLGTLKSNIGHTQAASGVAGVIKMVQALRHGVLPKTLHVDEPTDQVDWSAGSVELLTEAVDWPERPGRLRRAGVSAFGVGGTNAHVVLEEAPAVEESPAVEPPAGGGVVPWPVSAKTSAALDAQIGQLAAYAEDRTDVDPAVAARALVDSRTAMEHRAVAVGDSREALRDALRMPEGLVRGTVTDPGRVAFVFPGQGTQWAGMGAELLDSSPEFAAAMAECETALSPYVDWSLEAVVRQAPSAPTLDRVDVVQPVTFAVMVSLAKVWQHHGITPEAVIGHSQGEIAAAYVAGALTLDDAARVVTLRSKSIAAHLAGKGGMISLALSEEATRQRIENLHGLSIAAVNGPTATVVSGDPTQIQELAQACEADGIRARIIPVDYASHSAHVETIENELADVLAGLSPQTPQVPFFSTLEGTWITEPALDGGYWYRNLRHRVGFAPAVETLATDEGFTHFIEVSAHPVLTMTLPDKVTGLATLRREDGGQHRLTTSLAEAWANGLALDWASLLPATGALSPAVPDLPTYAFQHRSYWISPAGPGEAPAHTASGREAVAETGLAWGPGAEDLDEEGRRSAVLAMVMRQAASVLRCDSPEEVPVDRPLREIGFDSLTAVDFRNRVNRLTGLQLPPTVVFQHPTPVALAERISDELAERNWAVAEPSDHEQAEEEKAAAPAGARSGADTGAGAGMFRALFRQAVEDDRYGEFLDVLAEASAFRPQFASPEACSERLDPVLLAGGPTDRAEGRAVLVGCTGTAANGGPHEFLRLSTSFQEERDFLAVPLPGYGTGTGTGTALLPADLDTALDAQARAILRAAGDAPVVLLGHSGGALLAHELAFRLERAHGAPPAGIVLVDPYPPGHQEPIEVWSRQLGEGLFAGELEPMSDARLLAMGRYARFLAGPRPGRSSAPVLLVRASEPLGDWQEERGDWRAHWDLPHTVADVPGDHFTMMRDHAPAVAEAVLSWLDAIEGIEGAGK
UniProt P49888, sequence (whole entry, looked up): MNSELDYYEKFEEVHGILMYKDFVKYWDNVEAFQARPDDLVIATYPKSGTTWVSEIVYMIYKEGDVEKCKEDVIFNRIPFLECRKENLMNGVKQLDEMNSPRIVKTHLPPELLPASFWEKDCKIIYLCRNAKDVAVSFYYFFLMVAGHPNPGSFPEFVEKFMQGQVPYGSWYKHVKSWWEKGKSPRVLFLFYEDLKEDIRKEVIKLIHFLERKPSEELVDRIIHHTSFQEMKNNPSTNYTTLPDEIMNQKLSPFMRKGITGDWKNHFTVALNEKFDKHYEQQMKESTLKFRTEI

Substance | tested on | test | test system | conditions | quantity | result
enzyme (Trypanosoma brucei, UniProt Q57W34) | CC(=O)N[C@H]1[C@@H](OP(=O)(O)OP(=O)(O)OCC[C@@H](C)CC/C=C(/C)CC/C=C(/C)CCC=C(C)C)O[C@H](CO)[C@@H](O[C@@H]2O[C@H](CO)[C@@H](O)[C@H](O)[C@H]2NC(C)=O)[C@@H]1O | steady-state kinetics | – | pH 7.5 | Km | 2.7 µM
SLC15A1 (Homo sapiens, UniProt P46059) | CCC(CC)[C@H](NC(C)=O)[C@@H]1[C@H](O)[C@@H](C(=O)N[C@H](C(=O)O)[C@@H](C)CC)C[C@H]1NC(=N)N | steady-state kinetics | – | pH 6, not purified | Km | 5920 µM
B1 (NTMT1) | CC[C@H](C)[C@H](NC(=O)[C@H](CCCNC(=N)N)NC(=O)[C@H](CCCCN)NC(=O)[C@@H]1CCCN1C(=O)[C@@H](N)CO)C(=O)N[C@@H](C)C(N)=O | steady-state kinetics | – | 1536-well miniaturized | Km | 0.5 µM
enzyme (Astragalus mongholicus, UniProt A0A977WLP2) | CC(C)(O)[C@H]1CC[C@@](C)([C@H]2[C@@H](O)C[C@@]3(C)[C@@H]4C[C@H](O)[C@H]5C(C)(C)[C@@H](O)CC[C@@]56C[C@@]46CC[C@]23C)O1 | steady-state kinetics | – | pH 8, 35 °C | Km | 23.8 µM
B2 (TENT2) | O=c1ccn([C@@H]2O[C@H](COP(=O)(O)OP(=O)(O)OP(=O)(O)O)[C@@H](O)[C@H]2O)c(=O)[nH]1 | steady-state kinetics | – | pH 8, 37 °C | Km | 169 µM
B3 (genB3 A452T/L401C/Q310N) | CN[C@@H]1[C@@H](O)[C@@H](O[C@@H]2[C@@H](O)[C@H](O[C@H]3O[C@H](CN)[C@@H](O)[C@H](OP(=O)(O)O)[C@H]3N)[C@@H](N)C[C@H]2N)OC[C@]1(C)O | steady-state kinetics | – | 30 °C | Km | 440 µM
B4 (protein) | N[C@@H](Cc1ccc(O)c(I)c1)C(=O)O | steady-state kinetics | – | pH 7.4, 25 °C | Km | 0.22 µM
protein (Streptomyces platensis, UniProt A0A023VSF1) | CC(C)=CCC/C(C)=C/CC/C(C)=C/CC/C(C)=C/COP(=O)(O)OP(=O)(O)O | steady-state kinetics | – | together with: Mg2+ | Km | 44 µM
enzyme (Astragalus mongholicus, UniProt A0A977WMT0) | [H][C@@]1(O[C@H]2CC[C@]34C[C@]35CC[C@@]3(C)[C@@](C)(C[C@H](O)[C@]3([H])[C@@]3(C)CC[C@@]([H])(C(C)(C)O)O3)[C@]5([H])C[C@H](O)[C@@]4([H])C2(C)C)OC[C@@H](O)[C@H](O)[C@H]1O | steady-state kinetics | – | – | Km | 54.2 µM
enzyme (Streptomyces venezuelae, UniProt Q9ZGI2) | CC[C@@H](O)[C@H](C)/C=C/C(=O)[C@H](C)C[C@H](C)[C@H](OC)[C@@H](C)C(=O)SCCNC(C)=O | steady-state kinetics | – | – | Km | 4460 µM
B5 (PPIP5K2) | O=P(O)(O)O[C@@H]1[C@@H](OP(=O)(O)O)[C@H](OP(=O)(O)OP(=O)(O)O)[C@@H](OP(=O)(O)O)[C@H](OP(=O)(O)OP(=O)(O)O)[C@@H]1OP(=O)(O)O | steady-state kinetics | – | – | Km | 0.022 µM
B6 (DTYMK) | Cc1cn([C@@H]2C[C@@H](O)[C@H](COP(=O)(O)O)O2)c(=O)[nH]c1=O | steady-state kinetics | – | together with: ATP 2 mM, Mg2+ 2 mM | Km | 380 µM
enzyme (Streptomyces filamentosus, UniProt A0ABY4UVI6) | CC(C)C[C@H](NC(=O)c1cc(O)cc(-c2ccccn2)n1)C(=O)O | steady-state kinetics | – | pH 8, 30 °C | Km | 370 µM
B7 (enzyme) | O=C(O)C(=O)C[C@H]1C=C[C@H](O)C=C1 | steady-state kinetics | – | pH 8.1, apparent | Km | 423 µM
RNA 1 GGAGGAUGUUAAUUGGCGUGUCUUGUCUGCAACGGUAUUC / RNA 2 GAAUACCGUUGCAGACAAGACACGCCAAUUAACAUCCUCC (dsRNA) | EIF2AK2 1-185 F41W (Homo sapiens, UniProt P19525) | tryptophan fluorescence anisotropy | double-stranded RNA | 1 µM | binding | binds
KDM4E (Homo sapiens, UniProt B2RXH2) | C[C@H](N)C(=O)N[C@@H](CCCNC(=N)N)C(=O)N[C@@H](CCCC[N+](C)(C)C)C(=O)N[C@@H](CO)C(=O)N[C@H](C(=O)NCC(=O)NCC(=O)N[C@@H](CCCCN)C(=O)O)[C@@H](C)O | steady-state kinetics | – | pH 7.5, 37 °C | Km | 21.3 µM
SULT1E1 (Homo sapiens, UniProt P49888) | O=C(O[C@@H]1Cc2c(O)cc(O)cc2O[C@@H]1c1cc(O)c(O)c(O)c1)c1cc(O)c(O)c(O)c1 | steady-state kinetics | – | pH 7.4, not purified | Km | 3.25 µM

A few entries again:
Substance | tested on | test | test system | conditions | quantity | result
enzyme (Streptomyces venezuelae, UniProt Q9ZGI2) | CC[C@@H](O)[C@H](C)/C=C/C(=O)[C@H](C)C[C@H](C)[C@H](OC)[C@@H](C)C(=O)SCCNC(C)=O | steady-state kinetics | – | – | Km | 4460 µM
B5 (PPIP5K2) | O=P(O)(O)O[C@@H]1[C@@H](OP(=O)(O)O)[C@H](OP(=O)(O)OP(=O)(O)O)[C@@H](OP(=O)(O)O)[C@H](OP(=O)(O)OP(=O)(O)O)[C@@H]1OP(=O)(O)O | steady-state kinetics | – | – | Km | 0.022 µM
